Values quoted from earlier work as cited in several papers.
Converted amounts (≈) assume the structure as drawn.

Cc1ccc(N(C)C(=O)[C@H](Cc2ccccc2)NC(=O)Cc2c[nH]c3ccc(O)cc23)cc1  ΔTm (HIV-1 capsid hexamer wild type): 6.3 °C
O=c1c2ccccc2[se]n1Cc1ccc(Cl)cc1  IC50 (SARS-CoV-2 main protease; enzyme activity, inhibitor): 820 nM
CC[C@H](C)[C@H](NC(=O)[C@@H](NC(=O)[C@H](C)NC(=O)[C@@H](NC(=O)[C@H](C)NC(=O)[C@@H]1CCCN1C(=O)CNC(=O)[C@H](C)NC(=O)[C@H](CC(N)=O)NC(=O)[C@H](CCCCN)NC(=O)[C@@H](NC(=O)[C@H](C)NC(=O)[C@H](CC(N)=O)NC(=O)[C@H](CCCNC(=N)N)NC(=O)[C@@H](NC(=O)[C@H](CCCNC(=N)N)NC(=O)[C@H](CCCNC(=N)N)NC(=O)[C@@H](NC(=O)[C@@H](NC(=O)[C@H](CCCCN)NC(=O)[C@H](CCC(=O)O)NC(=O)[C@H](CC(C)C)NC(=O)[C@H](CCCCN)NC(=O)[C@H](CCCCN)NC(=O)[C@H](CC(C)C)NC(=O)[C@@H]1CCCN1C(=O)[C@H](CCCCN)NC(=O)[C@H](Cc1c[nH]c2ccccc12)NC(=O)[C@@H](N)CCCNC(=N)N)C(C)C)C(C)C)C(C)C)C(C)C)C(C)C)C(C)C)C(=O)NCC(=O)N[C@@H](CC(=O)O)C(=O)O  MIC (Staphylococcus aureus): 16 µM (≈ 55.5 µg/mL)
COC1C2(O)C(=O)N3C=CC(C)(C)c4[nH]c5ccccc5c4C=C3C(=O)N2C23C(C)C(C)(C)N2c2ccccc2C13O (stereo not drawn)  activity (GABA-A receptor α1β2γ2, human; 10 µM): inactive
COC(=O)c1c(CCl)cc(O)c(=O)c(O)c1C(=O)OC  IC50 (HIV RNase H; enzyme activity): 800 nM
COc1cc(NC(=O)CN2CN=C(c3ccccc3)C(c3ccccc3)=N2)cc(OC)c1  inhibition (amyloid beta; aggregation, inhibitor; 10 µM): 31.2%
O=C(c1cccc(Cn2[se]c3ccccc3c2=O)c1)N1CCOCC1  IC50 (SARS-CoV-2 main protease; enzyme activity, inhibitor): 350 nM
CC[C@H](C)[C@H](NC(=O)CNC(=O)[C@H](CCC(N)=O)NC(=O)[C@@H](NC(=O)[C@H](C)NC(=O)[C@H](CCC(N)=O)NC(=O)[C@H](C)NC(=O)[C@@H](NC(=O)[C@H](C)NC(=O)[C@H](CCCNC(=N)N)NC(=O)[C@H](Cc1ccccc1)NC(=O)[C@H](C)NC(=O)[C@H](CC(N)=O)NC(=O)[C@H](CCCCN)NC(=O)CNC(=O)[C@H](C)NC(=O)[C@H](CCCCN)NC(=O)[C@H](CCC(=O)O)NC(=O)[C@@H](NC(=O)[C@H](CCCCN)NC(=O)[C@H](CCCCN)NC(=O)CN)[C@@H](C)CC)C(C)C)C(C)C)C(=O)NCC(=O)N[C@@H](Cc1ccccc1)C(=O)N[C@@H](C)C(=O)N[C@@H](CCCNC(=N)N)C(=O)N[C@@H](C)C(=O)N[C@@H](CC(C)C)C(=O)NCC(=O)N[C@H](C(=O)N[C@@H](C)C(=O)N[C@H](C(=O)N[C@@H](CC(=O)O)C(=O)O)C(C)C)[C@@H](C)CC  MIC (Staphylococcus aureus): 32 µM (≈ 107 µg/mL)
Cc1c(CC(=O)N[C@@H](Cc2ccccc2)C(=O)N(C)c2ccccc2)c2ccccc2n1C(C)C  ΔTm (HIV-1 capsid hexamer wild type): 7.8 °C
O=c1c2ccccc2[se]n1-c1cccc(C(F)(F)F)c1  IC50 (SARS-CoV-2 main protease; enzyme activity, inhibitor): 2770 nM
CCn1c(C)c(CC(=O)N[C@@H](Cc2ccccc2)C(=O)N(C)c2ccc(Cl)cc2)c2ccccc21  ΔTm (HIV-1 capsid hexamer wild type): 11.9 °C
COC(=O)c1c(C)cc(O)c(=O)c(O)c1C(=O)OC  IC50 (HIV RNase H; enzyme activity): 230 nM

Some of these lines once more:
COC1C2(O)C(=O)N3C=CC(C)(C)c4[nH]c5ccccc5c4C=C3C(=O)N2C23C(C)C(C)(C)N2c2ccccc2C13O (stereo not drawn)  activity (GABA-A receptor α1β2γ2, human; 10 µM): inactive
